Assay results of several laboratories.
Lines come from different studies, so protocols differ.
KRAS G12D GDP-bound: GTPase KRas, GDP-bound (KRAS, Homo sapiens, UniProt P01116, G12D)
KRAS C118A/G12C: GTPase KRas (KRAS, Homo sapiens, UniProt P01116, C118A/G12C)
KRAS G13D GDP-bound: GTPase KRas, GDP-bound (KRAS, Homo sapiens, UniProt P01116, G13D)

For CC[C@H](C)[C@@H]1NC(=O)[C@H](Cc2ccc(-c3ccccc3)cc2)NC(=O)[C@H](CC(C)C)NC(=O)[C@@H]2CCCN2C(=O)[C@@H](NC(=O)[C@H](CCCNC(=N)N)NC(=O)[C@H](CCCNC(=N)N)NC(C)=O)CSSC[C@@H](C(=O)N[C@@H](CCCNC(=N)N)C(=O)N[C@@H](CCCNC(=N)N)C(N)=O)NC(=O)[C@H](C(C)C)NC(=O)[C@@H]2CCCN2C(=O)[C@H](CC(=O)O)NC(=O)[C@H](Cc2ccc(O)cc2)NC(=O)[C@H](CO)NC1=O, “lowest bound protein concentration” read 0.04 µM (KRAS G12D GDP-bound; affinity selection mass spectrometry; mixture library 4, together with: protein titration up to 2.5 µM; lower is stronger binding).
For C=CC(=O)N1CC2(CCN(c3nc4c(c(-c5cc(O)cc6ccccc56)n3)CCCC4)C2)C1, the ligand efficiency was 0.23 (KRAS C118A/G12C; SOS1-catalysed nucleotide exchange, AlphaScreen).
CC[C@H](C)[C@@H]1NC(=O)[C@H](Cc2ccc(O)cc2)NC(=O)[C@H](CC(C)C)NC(=O)[C@@H]2CCCN2C(=O)[C@@H](NC(=O)[C@H](CCCNC(=N)N)NC(=O)[C@H](CCCNC(=N)N)NC(C)=O)CSSC[C@@H](C(=O)N[C@@H](CCCNC(=N)N)C(=O)N[C@@H](CCCNC(=N)N)C(N)=O)NC(=O)[C@H](C(C)C)NC(=O)[C@@H]2CCCN2C(=O)[C@H](CC(=O)O)NC(=O)[C@H](CC2CCCCC2)NC(=O)[C@H](CO)NC1=O — result for “lowest bound protein concentration”: 0.16 µM (KRAS G12D GDP-bound; affinity selection mass spectrometry; mixture library 2, together with: protein titration up to 5 µM; lower is stronger binding).
C=CC(=O)N1CCN2C(=O)c3cc(F)c(-c4ccc(F)c5sc(N)c(C#N)c45)c(Cl)c3OCC[C@H]2C1 has a kinact of 0.00903 s⁻¹ (GTPase KRas, GDP-bound (KRAS, Homo sapiens, UniProt P01116, G12C); covalent inhibitor, SPR; GDP-bound, biotinylated).
For C=C1CN2CCC[C@@]2(COc2nc(N3CCN(C(=O)/C=C/c4cccc5c4CNCC5)C[C@@H]3C)c3cc(Cl)c(-c4nc(N)cc(C)c4C(F)(F)F)c(F)c3n2)C1, the potency increase was ~3 fold (KRAS G13D GDP-bound; nucleotide exchange, inhibitor, HTRF; reference: 32).
C=CC(=O)N1CC2(CCN(c3nc4c(c(-c5cccc6sc(N)nc56)n3)CCCC4)C2)C1 gave a ligand efficiency of 0.22 (KRAS C118A/G12C; SOS1-catalysed nucleotide exchange, AlphaScreen).
CC[C@H](C)[C@@H]1NC(=O)[C@H](Cc2ccc(O)cc2)NC(=O)[C@H](CC(C)C)NC(=O)[C@@H]2CCCN2C(=O)[C@@H](NC(=O)[C@H](CCCNC(=N)N)NC(=O)[C@H](CCCNC(=N)N)NC(C)=O)CSSC[C@@H](C(=O)N[C@@H](CCCNC(=N)N)C(=O)N[C@@H](CCCNC(=N)N)C(N)=O)NC(=O)[C@H](C(C)C)NC(=O)[C@@H]2CCCN2C(=O)[C@H](CC(=O)O)NC(=O)[C@H](C(c2ccccc2)c2ccccc2)NC(=O)[C@H](CO)NC1=O — result for “lowest bound protein concentration”: 0.08 µM (KRAS G12D GDP-bound; affinity selection mass spectrometry; mixture library 2, together with: protein titration up to 5 µM; lower is stronger binding).
For C=CC(=O)N1CC2(CCN(c3nc(N[C@H](CC(=O)NC)CC(C)C)nc(-c4cccc(OC)c4OC)n3)C(C)C2)C1 (stereo partly drawn), the enrichment factor was 72 (KRAS C118A/G12C; covalent, DNA-encoded library screen).
For CC[C@H](C)[C@@H]1NC(=O)[C@H](CCc2ccccc2)NC(=O)[C@H](CC(C)C)NC(=O)[C@@H]2CCCN2C(=O)[C@@H](NC(=O)[C@H](CCCNC(=N)N)NC(=O)[C@H](CCCNC(=N)N)NC(C)=O)CSSC[C@@H](C(=O)N[C@@H](CCCNC(=N)N)C(=O)N[C@@H](CCCNC(=N)N)C(N)=O)NC(=O)[C@H](C(C)C)NC(=O)[C@@H]2CCCN2C(=O)[C@H](CC(=O)O)NC(=O)[C@H](Cc2ccc(O)cc2)NC(=O)[C@H](CO)NC1=O, “lowest bound protein concentration” read 0.31 µM (KRAS G12D GDP-bound; affinity selection mass spectrometry; mixture library 1, together with: protein titration up to 5 µM; lower is stronger binding).
For Cc1nn2c(N3CCN(CCO)CC3)cc(-c3ccccc3)nc2c1-c1ccccc1, “binding onset concentration” read > 20 µM (GTPase KRas, GDP-bound (KRAS, Homo sapiens, UniProt P01116); binding, to KRAS, GDP-bound, microscale thermophoresis).
For Cc1cc(N)nc(-c2c(Cl)c3c4c(ncnc4c2F)N2CCN(C(=O)/C=C/c4nccc5c4CNCC5)C[C@H]2CO3)c1C(F)(F)F, the potency decrease was ~1800 fold (KRAS G13D GDP-bound; nucleotide exchange, inhibitor, HTRF; reference: 29).
C#Cc1c(F)ccc2cc(O)cc(-c3ncc4c(N5CC6CCC(C5)N6)nc(OC[C@@]56CCCN5C[C@H](F)C6)nc4c3F)c12 gave an off-rate increase of 14 fold (GTPase KRas, GppNHp-bound (KRAS, Homo sapiens, UniProt P01116); SPR; wild type; reference: GppNHp-bound over GDP-bound).
Under “potency loss from trifluoroethyl”, C[C@H]1CN(CC(F)(F)F)CCN1c1nccc(-c2noc([C@@]3(C)CCCc4sc(N)c(C#N)c43)n2)n1 is recorded as > 100 fold (GTPase KRas, with SOS1 (KRAS, Homo sapiens, UniProt P01116, C118S/G12V); KRAS G12V-SOS1 binding, inhibitor, AlphaScreen; reference: other N-substituted piperazines).
CC[C@H](C)[C@@H]1NC(=O)[C@H](Cc2ccc(-c3ccccc3)cc2)NC(=O)[C@H](CC(C)C)NC(=O)[C@@H]2CCCN2C(=O)[C@@H](NC(=O)[C@H](CCCNC(=N)N)NC(=O)[C@H](CCCNC(=N)N)NC(C)=O)CSSC[C@@H](C(=O)N[C@@H](CCCNC(=N)N)C(=O)N[C@@H](CCCNC(=N)N)C(N)=O)NC(=O)[C@H](Cc2ccc(Cl)cc2)NC(=O)[C@@H]2C[C@@H](OCC(=O)O)CN2C(=O)[C@H](CC(=O)O)NC(=O)[C@H](Cc2ccc(O)cc2)NC(=O)[C@H](CO)NC1=O: “lowest bound protein concentration” 0.16 µM (KRAS G12D GDP-bound; affinity selection mass spectrometry; mixture library 4, together with: protein titration up to 2.5 µM; lower is stronger binding).
For C=CC(=O)N1CC2(CCN(c3nc(N[C@H](CC(=O)NC)CC(C)C)c4ccccc4n3)C2)C1, the ligand efficiency was 0.21 (KRAS C118A/G12C; SOS1-catalysed nucleotide exchange, AlphaScreen).

A few entries again:
CC[C@H](C)[C@@H]1NC(=O)[C@H](Cc2ccc(O)cc2)NC(=O)[C@H](CC(C)C)NC(=O)[C@@H]2CCCN2C(=O)[C@@H](NC(=O)[C@H](CCCNC(=N)N)NC(=O)[C@H](CCCNC(=N)N)NC(C)=O)CSSC[C@@H](C(=O)N[C@@H](CCCNC(=N)N)C(=O)N[C@@H](CCCNC(=N)N)C(N)=O)NC(=O)[C@H](C(C)C)NC(=O)[C@@H]2CCCN2C(=O)[C@H](CC(=O)O)NC(=O)[C@H](CC2CCCCC2)NC(=O)[C@H](CO)NC1=O — result for “lowest bound protein concentration”: 0.16 µM (KRAS G12D GDP-bound; affinity selection mass spectrometry; mixture library 2, together with: protein titration up to 5 µM; lower is stronger binding).
